Measured values gathered from unrelated publications.
Protocols differ between the studies behind these lines. Several values in a cell are separate wells, animals, samples, runs or records. ± gives the spread as reported. No end group written: not given here.
U2AF2: U2AF2 148-342 (Homo sapiens, UniProt P26368)
UniProt P26368, sequence (whole entry, looked up): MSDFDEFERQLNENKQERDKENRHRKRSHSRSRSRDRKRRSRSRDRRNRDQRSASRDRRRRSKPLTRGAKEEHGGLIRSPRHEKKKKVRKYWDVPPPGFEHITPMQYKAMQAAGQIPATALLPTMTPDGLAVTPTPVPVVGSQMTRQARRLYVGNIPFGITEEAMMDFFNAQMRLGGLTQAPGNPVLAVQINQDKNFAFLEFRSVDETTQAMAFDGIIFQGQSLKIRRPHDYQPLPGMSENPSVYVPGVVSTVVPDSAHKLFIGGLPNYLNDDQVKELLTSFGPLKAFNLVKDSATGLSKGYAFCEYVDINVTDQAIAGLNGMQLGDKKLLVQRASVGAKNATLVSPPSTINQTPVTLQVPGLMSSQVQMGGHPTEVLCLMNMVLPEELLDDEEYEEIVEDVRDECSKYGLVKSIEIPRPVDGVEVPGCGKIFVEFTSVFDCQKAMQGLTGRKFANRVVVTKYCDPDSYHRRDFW
B1: human CCDC6; sequence looked up; chain ADSASESDTDGAGGNSSSSAAMQSSCSSTSGGGGGGGGGGGGGKSGGIVISPFRLEELTNRLASLQQENKVLKIELETYKLKCKALQEENRDLRKASVTIQARAEQEEEFISNTLFKKIQALQKEKETLAVNYEKEEEFLTNELSRKLMQLQHEKAELEQHLEQEQEFQVNKLMKKIKKLENDTISKQLTLEQLRREKIDLENTLEQEQEALVNRLWKRMDKLEAEKRILQEKLDQPVSAPPSPRDISMEIDSPENMMRHIRFLKNEVERLKKQLRAAQLQHSEKMAQYLEEERHMREENLRLQRKLQREMERREALCRQLSESESSLEMDDERYFNEMSAQGLRPRTVSSPIPYTPSPSSSRPISPGLSYASHTVGFTPPTSLTRAGMSYYNSPGLHVQHMGTSHGITRPSPRRSNSPDKFKRPTPPPSPNTQTPVQPPPPPPPPPMQPTVPSAATSQPTPSQHSAHPSSQP
B2: bicyclic; chain AATCHCRRSCYSTEYSYGTCTVMGINHRFCCL (also: bicyclic or more (positions not given here))
B3: human MCM5; sequence looked up; chain SGFDDPGIFYSDSFGGDAQADEGQARKSQLQRRFKEFLRQYRVGTDRTGFTFKYRDELKRHYNLGEYWIEVEMEDLASFDEDLADYLYKQPAEHLQLLEEAAKEVADEVTRPRPSGEEVLQDIQVMLKSDASPSSIRSLKSDMMSHLVKIPGIIIAASAVRAKATRISIQCRSCRNTLTNIAMRPGLEGYALPRKCNTDQAGRPKCPLDPYFIMPDKCKCVDFQTLKLQELPDAVPHGEMPRHMQLYCDRYLCDKVVPGNRVTIMGIYSIKKFGLTTSRGRDRVGVGIRSSYIRVLGIQVDTDGSGRSFAGAVSPQEEEEFRRLAALPNVYEVISKSIAPSIFGGTDMKKAIACLLFGGSRKRLPDGLTRRGDINLLMLGDPGTAKSQLLKFVEKCSPIGVYTSGKGSSAAGLTASVMRDPSSRNFIMEGGAMVLADGGVVCIDEFDKMREDDRVAIHEAMEQQTISIAKAGITTTLNSRCSVLAAANSVFGRWDETKGEDNIDFMPTILSRFDMIFIVKDEHNEERDVMLAKHVITLHVSALTQTQAVEGEIDLAKLKKFIAYCRVKCGPRLSAEAAEKLKNRYIIMRSGARQHERDSDRRSSIPITVRQLEAIVRIAEALSKMKLQPFATEADVEEALRLFQVSTLDAALSGTLSGVEGFTSQEDQEMLSRIEKQLKRRFAIGSQVSEHSIIKDFTKQKYPEHAIHKVLQLMLRRGEIQHRMQRKVLYRLK

Molecule	tested on	test	system	conditions	scale	endpoint	result
B1 (human CCDC6)	CYB5R4 knockout human cells	PP4 interaction, 3xFLAG-PP4C IP-MS	–	concentration not given	relative to: CYB5R4 KO over parental	log2 fold change	-5.61
coproporphyrin I	–	–	human, serum	oral, 20 mg ezetimibe, 1.33 h, geometric mean ezetimibe alone	relative to: at 1.33 h over pre-dose	concentration ratio	6.78
FNA / CGLSGLGVA-NH2 ([18F]FNA-labelled, C-amide)	–	ex vivo gamma counting	peptide, healthy mouse, liver	60 min post injection	–	tissue uptake	0.55 %ID/g
C-peptide	–	–	prepared human sample	two freeze-thaw cycles	relative to: untreated control	bias	8.8%
caspofungin	–	–	adult ICU patients, mITT, serum	dose not given, day 4	–	alkaline phosphatase	153 U/L
Teicoplanin	–	–	stock solution	10 months, -40 °C	–	recovery	117%
coproporphyrin III	–	–	human, serum	oral, dose not given, 3 h, geometric mean, with: ezetimibe plus rifampin	–	serum concentration	0.782 nM
[177Lu]Lu-DOTA-TATE	–	–	PBS	up to 24 h, 37 °C	–	remaining compound	> 95%
coproporphyrin I	–	–	human, plasma	concentration not given, control, endogenous	–	Cmax	0.967 ± 0.044 nM
CTOP	–	RP-HPLC	HALO C18 column	25 µM, acetic acid/acetonitrile, 25 min gradient	–	retention time	7.28 min
equol sulfate	–	–	human, plasma	dose not given, mean	–	plasma concentration	859 nM
B2	–	sedimentation velocity ultracentrifugation	10 mM sodium phosphate	40 µM, pH 7.4, 20 °C	–	molecular mass	5.06 kDa
protopine	–	–	empty perfusion system	360 min	relative to: initial amount	loss by adherence	19.5 ± 8.3%
Fluorescein isothiocyanate	–	confocal imaging	cargo-loaded PSP-2 coacervates in Opti-MEM	concentration not given, with: cargo 5 µM	–	saturation concentration	10 to 25 µM
AUAUUCUAU (ssRNA)	U2AF2	sequencing of bound RNA	RNA	motif only	–	Kd	1920 nM
Polymyxin B	–	LC-MS	Sprague-Dawley rat, right cortex homogenate	intracerebroventricular, 0.75 mg/kg, 1 h	–	brain concentration	8920 ng/mL and 10000 ng/mL and 11100 ng/mL and 9530 ng/mL and 7910 ng/mL and 7710 ng/mL and 9200 ng/mL and 6820 ng/mL
regorafenib N-β-glucuronide	–	–	mouse plasma	25 ng/mL, 8 h, room temperature	–	short-term stability accuracy	102%
B3 (human MCM5)	CYB5R4 knockout human cells	PP4 interaction, 3xFLAG-PP4C IP-MS	–	concentration not given	relative to: CYB5R4 KO over parental	log2 fold change	-2.89
GUUAGCUCU (ssRNA)	U2AF2	sequencing of bound RNA	RNA	motif only	–	Kd	1270 nM

A few entries again:
Molecule	tested on	test	system	conditions	scale	endpoint	result
coproporphyrin I	–	–	human, plasma	concentration not given, control, endogenous	–	Cmax	0.967 ± 0.044 nM
CTOP	–	RP-HPLC	HALO C18 column	25 µM, acetic acid/acetonitrile, 25 min gradient	–	retention time	7.28 min
equol sulfate	–	–	human, plasma	dose not given, mean	–	plasma concentration	859 nM
